Assay results gathered from unrelated publications.
Protocols differ between the studies behind these lines. Numbers after ± are the reported error.

Structure (SMILES)	cell line	assay	conditions	scale	quantity	result
COc1cc(CCC[P+](c2ccccc2)(c2ccccc2)c2ccccc2)c(OC)c2c1OCO2.[I-]	NCI-H322M	SRB	–	–	TGI	-4.54 log M
COc1ccc2c(c1)[nH]c1c(C)nccc12	DU-145	bisulfite pyrosequencing, refers to: RASSF1A promoter CpG site 14	concentration not given	relative to: vehicle	methylation reduction	0%
CCN(CC)c1ccc(C=NNC(=O)CSc2nc3ccccc3c(=O)n2Cc2ccc(S(N)(=O)=O)cc2)c(O)c1	LOX IMVI	NCI five-dose screen	–	–	CC50	> 100 µM
CC[C@H](C)[C@H](NC(=O)[C@H](CCCCN)NC(=O)[C@H](CCCCN)NC(=O)[C@H](Cc1ccccc1)NC(=O)[C@H](CC(C)C)NC(=O)[C@H](CCCCN)NC(=O)[C@H](Cc1c[nH]c2ccccc12)NC(=O)[C@@H](N)CCCCN)C(=O)N[C@@H](Cc1ccccc1)C(=O)N[C@@H](CCCCN)C(=O)N[C@@H](CCCNC(=N)N)C(=O)N[C@H](C(=O)N[C@H](C(=O)N[C@@H](CCC(N)=O)C(=O)N[C@@H](CCCNC(=N)N)C(=O)N[C@H](C(=O)N[C@@H](CCCCN)C(=O)N[C@@H](CC(=O)O)C(=O)N[C@@H](Cc1ccccc1)C(=O)N[C@@H](CC(C)C)C(=O)N[C@@H](CCCNC(=N)N)C(=O)N[C@@H](CS)C(N)=O)[C@@H](C)CC)C(C)C)[C@@H](C)CC	human red blood cells	–	pH 7.4	relative to: Triton X-100	EC50	9 µM
CCC(=O)CCCCC[C@@H]1NC(=O)[C@H]2CCCCN2C(=O)[C@H]([C@@H](C)CC)NC(=O)[C@H](Cc2cn(OC)c3ccccc23)NC1=O	HBL-1	–	0.5 µM, 120 h	–	viability	1.39%
C/C=C(/C)C(=O)O[C@H]1C(C)=C2[C@H]([C@@H]1OC(=O)CCCCCCC)[C@@](C)(OC(C)=O)C[C@H](OC(=O)CCC)[C@@]1(O)[C@H]2OC(=O)[C@@]1(C)O	HEK-293T	RNA-seq GSEA, refers to: Hallmark estrogen response late	500 nM, 6 h	direction not given	normalized enrichment score	1.42
C=C[C@H]1CN2CC[C@H]1C[C@H]2[C@H](OC(=O)OCC)c1ccnc2ccc(OC)cc12	human iPSC-derived cardiomyocytes	MyBP-C/MYH ratio, plate-normalised SD score	concentration not given, primary screen	direction not given	activity score	4.3
Nc1ncc(-c2nc(N3CCOCC3)nc(N3CCOCC3)n2)c(C(F)F)n1	SW48	–	72 h	–	GI50	0.077 µM
Oc1ccc(C(c2ccc(O)cc2)(C(F)(F)F)C(F)(F)F)cc1	HepG2 spheroids	Hoechst flow cytometry	1 µM, 96 h	–	S phase cells	8.74 ± 0.78%
Cl[C@H]1[C@H](Cl)[C@@H](Cl)[C@@H](Cl)[C@H](Cl)[C@H]1Cl	human iPSC-derived cardiomyocytes	MyBP-C/MYH ratio, plate-normalised SD score	concentration not given, primary screen	direction not given	activity score	17
Nc1ncnc2c1ncn2[C@@H]1O[C@@H]2COP(=O)(O)O[C@H]3[C@@H](O)[C@H](n4cnc5c(=O)[nH]cnc54)O[C@@H]3COP(=O)(O)O[C@H]2[C@H]1O	HFF-1	RNA sequencing, refers to: Collagen formation	downregulated pathway	relative to: Zika virus alone	pathway fold enrichment	10.4
CC(C)C[C@H](NC(=O)[C@H](C)NC(=O)[C@H](Cc1c[nH]cn1)NC(=O)[C@H](C)NC(=O)[C@H](CC(C)C)NC(=O)[C@H](Cc1c[nH]cn1)NC(=O)[C@H](CC(C)C)NC(=O)[C@H](Cc1c[nH]c2ccccc12)NC(=O)[C@H](CC(C)C)NC(=O)[C@H](CC(C)C)NC(=O)[C@H](C)NC(=O)[C@H](CC(C)C)NC(=O)[C@H](CC(C)C)NC(=O)[C@H](Cc1c[nH]cn1)NC(=O)[C@H](CC(C)C)NC(=O)[C@H](C)NC(=O)[C@H](Cc1c[nH]cn1)NC(=O)[C@H](C)NC(=O)[C@H](CC(C)C)NC(=O)[C@H](CCCCN)NC(=O)[C@@H](N)CCCCN)C(=O)N[C@@H](CCCCN)C(=O)N[C@@H](CCCCN)C(=O)N[C@@H](C)C(=O)N[C@@H](CS)C(N)=O	human red blood cells	–	pH 7.4	relative to: Triton X-100	EC50	> 100 µM
CN1CCN(C2(CNC3CCN(c4cccc(-c5cc6cc(F)ccc6[nH]5)c4)CC3)CCC2)CC1	HCC 2998	–	–	–	GI50	1.4 µM
COc1c(CCC[P+](c2ccccc2)(c2ccccc2)c2ccccc2)cc2c(c1OC)OCO2.[I-]	UO-31	SRB	–	–	TGI	-4.33 log M
O=C1N(Cc2ccccc2Cl)c2ccccc2C12NN=C(c1ccccc1)S2 (stereo not drawn)	MDA-MB-468	gene expression array, refers to: INHBE mRNA	10 µM, 12 h	relative to: untreated, up	fold change	1.52

For quick reference, copied from above:
Structure (SMILES)	cell line	assay	conditions	scale	quantity	result
CN1CCN(C2(CNC3CCN(c4cccc(-c5cc6cc(F)ccc6[nH]5)c4)CC3)CCC2)CC1	HCC 2998	–	–	–	GI50	1.4 µM
